Results gathered from unrelated publications.
Numbered parts are unrelated; each lists some results of a single study. Several values in a cell are separate wells, animals, samples, runs or records.

Block 1
Target: Histone acetyltransferase KAT6A, winged helix 2, GST fusion (KAT6A, Homo sapiens, UniProt Q92794, residues 85-181)
Method: protein binding microarray
Form: double-stranded DNA, one strand shown
Matrix: in vitro
Tested at: not given
Notes: 8-mer, flanks averaged, mean of 2 arrays, mostly near background
Reference: not given
Direction: higher = stronger binding
Measurement: E-score
Construct (chain): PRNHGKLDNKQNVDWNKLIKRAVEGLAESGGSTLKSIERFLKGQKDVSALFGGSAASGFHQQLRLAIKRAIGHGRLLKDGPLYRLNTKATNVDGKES
Strand = ACTCAACA; value = -0.0195
Strand = AGACGACG; value = -0.168
Strand = AGACGTCA; value = -0.181
Strand = CGAACACC; value = 0.123
Strand = ATCGGTGA; value = 0.0488
Strand = ATGTATCC; value = -0.127

Block 2
Target: Protein C-ets-1 (ETS1, Homo sapiens, UniProt P14921, residues 1-441, full length assumed)
Sequence of UniProt P14921 (whole entry, looked up): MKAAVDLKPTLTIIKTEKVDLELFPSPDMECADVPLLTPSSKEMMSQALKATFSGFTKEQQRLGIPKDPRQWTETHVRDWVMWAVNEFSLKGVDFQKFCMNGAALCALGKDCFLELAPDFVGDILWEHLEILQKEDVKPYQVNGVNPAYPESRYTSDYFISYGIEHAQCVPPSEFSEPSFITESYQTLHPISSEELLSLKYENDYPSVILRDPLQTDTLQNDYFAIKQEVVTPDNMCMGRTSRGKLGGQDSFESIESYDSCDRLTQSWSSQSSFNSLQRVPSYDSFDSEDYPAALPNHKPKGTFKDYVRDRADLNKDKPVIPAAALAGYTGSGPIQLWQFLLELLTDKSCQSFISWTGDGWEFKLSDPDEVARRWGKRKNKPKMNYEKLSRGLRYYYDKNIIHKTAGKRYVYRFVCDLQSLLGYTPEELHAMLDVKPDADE
Method: protein-binding microarray
Form: double-stranded DNA, one strand shown
Matrix: in vitro
Tested at: not given
Notes: k-mer, scored over probes, only values ≥0.25
Direction: higher = stronger binding
Measurement: E-score
Strand = AACGGACA; value = 0.251
Strand = CACAGGAA; value = 0.439
Strand = GGCCGGGA; value = 0.264
Strand = AGCATCCG; value = 0.477
Strand = CGCAGGAA; value = 0.417

Single results of other studies
UNK zinc fingers 1-6, GST-SBP tag: RING finger protein unkempt homolog, zinc fingers 1-6, GST-SBP tag (UNK, Homo sapiens, UniProt Q9C0B0, residues 30-357)
Sequence of UniProt Q9C0B0 (30-357, looked up): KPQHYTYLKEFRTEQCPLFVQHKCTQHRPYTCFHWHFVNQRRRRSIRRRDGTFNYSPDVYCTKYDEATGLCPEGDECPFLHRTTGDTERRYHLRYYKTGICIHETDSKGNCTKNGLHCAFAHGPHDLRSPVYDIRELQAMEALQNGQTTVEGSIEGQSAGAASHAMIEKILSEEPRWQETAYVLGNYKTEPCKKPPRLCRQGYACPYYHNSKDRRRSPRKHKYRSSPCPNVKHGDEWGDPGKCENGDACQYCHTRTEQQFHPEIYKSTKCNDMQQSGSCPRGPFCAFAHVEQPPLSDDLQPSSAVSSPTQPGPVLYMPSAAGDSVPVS
Substance = GGGAGUUCUACAGUCCGACGAUCGUCUGGGGUACACCUGGACAGGUGUAUGAUGUGGAGGAGGUGGAUGUGAAAGAUCCUAACUAUGAUGAUGACCAGGAGAACUGUGUUUAUGAAACUGUAGUUUUGCCUUUGGAUGAAAGGCAACAGAGGAUUGAGCAUCA; target = UNK zinc fingers 1-6, GST-SBP tag; test = RNA Bind-n-Seq; test system = RNA, in vitro; setting = not given, RNA with constant flanks, human and mouse sites, ends assumed; scale = reference: input RNA pool, higher = stronger binding; measurement = bound/input enrichment; value = 0.39 ratio
Substance = PhoQ, residues 284 288 289 292 302 303 SACGEM; target = PhoP, residues 12 14 15 18 19 LWHCS (Escherichia coli, UniProt P23836); test = Sort-seq, refers to: YFP reporter; test system = E. coli; setting = PhoQ-PhoP variant library, with: 10 µM Mg2+; scale = reference: high Mg2+ state, higher = stronger signaling; measurement = fold induction; value = 9.1 and 19.3
Substance = GGGAGUUCUACAGUCCGACGAUCGUCCAGUUUUCACUUAGAUUUAUAGCAAAAAGUACCCCAGAGAGAUCUCACUCUAUUCUGUUACAAUUCUCCAUCAGUGGAGGAAUCACUUGGCACCUGAUGGAUGAAUUUUACUUUCCUCAACAGAGGAUUGAGCAUCA; target = UNK zinc fingers 1-6, GST-SBP tag; test = RNA Bind-n-Seq; test system = RNA, in vitro; setting = not given, RNA with constant flanks, human and mouse sites, ends assumed; scale = reference: input RNA pool, higher = stronger binding; measurement = bound/input enrichment; value = 11 ratio
Substance = GGGAGUUCUACAGUCCGACGAUCUUAAACACCAAGCUGAUGGACUCUGAUGGCCUCCAUCUCUCAGGCACGUGUGCCUUCUCUUAGUCCCUGUUUUCGGGAUGUUAUGAAUCUCAGUACUGUUUGACAGAAGCACCAGCUUUGCAACAGAGGAUUGAGCAUCA; target = UNK zinc fingers 1-6, GST-SBP tag; test = RNA Bind-n-Seq; test system = RNA, in vitro; setting = not given, RNA with constant flanks, human-mouse chimeric sites, ends assumed; scale = reference: input RNA pool, higher = stronger binding; measurement = bound/input enrichment; value = 0.172 ratio

Some of these lines once more (block 2):
Strand = AACGGACA; value = 0.251
